# Experimental data of several laboratories.
# Every numbered part comes from another study and shows a few of its results, in no order. Substitutions count along the parent as printed.

# Block 1 — target: CCNB1, cyclin fold, Cln2 fusion (human); technique: yeast growth competition, sequencing; medium: yeast; setting: weak parent motif; reference: not given; reading: higher = stronger binding
# Starting sequence: CDKN1A docking peptide (human); SKACRRLFGPVDS
Variant,normalised enrichment score
SKACRRLFGPHDS [V11H],0.228
SKACPRLFGPVDS [R5P],-0.223
SKACRRLFGMVDS [P10M],-0.426
SKACRTLFGPVDS [R6T],0.0858
SKACRRLFRPVDS [G9R],0.138
SKACRRLFGPDDS [V11D],0.726
SKAQRRLFGPVDS [C4Q],0.316
SWACRRLFGPVDS [K2W],0.0291
SSACRRLFGPVDS [K2S],0.24
SKACRALFGPVDS [R6A],0.239
SKACRREFGPVDS [L7E],-0.303
SKACSRLFGPVDS [R5S],-0.165
SKACRRLFGEVDS [P10E],0.117
SKVCRRLFGPVDS [A3V],1.55
SKACARLFGPVDS [R5A],0.274
SKMCRRLFGPVDS [A3M],0.339
SKACRRLFGPSDS [V11S],0.0702
SKACCRLFGPVDS [R5C],0.0887
SKACRRLFGAVDS [P10A],0.458
SKASRRLFGPVDS [C4S],0.0829
SKACRRLPGPVDS [F8P],0.0813
SKACHRLFGPVDS [R5H],0.0954
SKACRYLFGPVDS [R6Y],0.167
SKACQRLFGPVDS [R5Q],0.175
SKTCRRLFGPVDS [A3T],0.523

# Block 2 — technique: RNA Bind-n-Seq; form: RNA; medium: in vitro; tested at: 20 nM; setting: 6-mer, flanks averaged, single round; together with: 150 mM LiCl; reference: input library; reading: higher = stronger binding
# Target: TAR DNA-binding protein 43, full length, His tag (TARDBP, Homo sapiens, UniProt Q13148, residues 1-414)
Strand,6-mer enrichment (R)
CGCAGA,0.866
CAAAGU,0.869
CUGCGC,0.945
GUAACG,0.901
CCAAGG,0.887
ACGACG,0.808
AGACAC,0.9
AGCAGC,0.939
AAGUGU,1.29
UGAAAU,0.901
GUGGUU,1.39
CGAUCU,0.813
GAGUGG,1.52
GCCCUU,1.15
UAUAUA,1.01
GUCAUC,0.845

# Block 3 — technique: RNA Bind-n-Seq; form: RNA; medium: in vitro; tested at: 200 nM; setting: whole 134-nt RNA, ends assumed; together with: 150 mM KCl; reference: input library; reading: higher = stronger binding
# Target: Fragile X messenger ribonucleoprotein 1, C-terminal low-complexity region (Fmr1, Mus musculus, UniProt P35922)
Strand,log2 enrichment
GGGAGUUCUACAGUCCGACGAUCGUCCUGUGCUACACAUCGUAUGUACCGAAUCGGGUUUUUGGGUUUUUGGGGUUUUUGGAAAGUAUUAUGUUACGCCGUUCGGAUCUGCACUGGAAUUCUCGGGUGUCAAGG,0.0244
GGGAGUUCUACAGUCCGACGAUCCUCAAGUCCUGUGCUACACAUCGUAUGUACCGAAUCGGCCGGGGCCGGGCCGGAAAGUAUUAUGUUACGCCGUUCGGAUCUGCACUUCCAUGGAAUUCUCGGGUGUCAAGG,-0.187
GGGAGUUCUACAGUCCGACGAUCUGGGAGGUGGAUUUUGUUUAUUUUUUUAGCUCAUUUUCAGGGGUGGGAAUUUUUUUUUAAUAUGUGUCAUGAAUAAAGUUGUUUUUGAAAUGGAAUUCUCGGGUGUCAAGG,0.107
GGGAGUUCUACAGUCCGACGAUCGUCCUGUGCUACACAUCGUAUGUACCGAAUCAAACCCCCAAAUUUAAAUUUUUUUAAAAAAGUAUUAUGUUACGCCGUUCGGAUCUGCACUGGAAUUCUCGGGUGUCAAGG,0.272
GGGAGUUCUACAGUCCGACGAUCAAGUCCUGUGCUACACAUCGUAUGUACCGAAUCGGGCCCCCGGCCCCCGGCCCCCGGAAAGUAUUAUGUUACGCCGUUCGGAUCUGCACUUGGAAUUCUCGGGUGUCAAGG,-0.218
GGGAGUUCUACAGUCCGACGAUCUGUGCUACACAUCGUAUGUACCGAAUCGGGGUUUUUUUGGGGUUUUUUUGGGGUUUUUUUGGGAAAGUAUUAUGUUACGCCGUUCGGAUCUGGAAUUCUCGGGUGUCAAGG,0.199
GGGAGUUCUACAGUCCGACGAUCUUCCUCAAGUCCUGUGCUACACAUCGUAUGUACCGAAUCGGUGGUGGAGGAAAGUAUUAUGUUACGCCGUUCGGAUCUGCACUUCCAGCAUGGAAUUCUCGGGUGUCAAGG,-0.66
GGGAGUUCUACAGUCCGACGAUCGCAGGAAGUAACAACAAAUGGAAAUGCUUCGGAUAGUGGCAGGGGUGGGGGUUGCUAAGGAAAGGGUGGGAUGGGAGUGGGUAAAGAGUUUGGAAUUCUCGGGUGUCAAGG,0.227
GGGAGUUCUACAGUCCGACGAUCUGGCCCUGGUGGCAUGCGGGGAGGAAGAGGUGGCCUCAUGGAUCGUGGUGGUCCCGGUGGAAUGUUCAGAGGUGGCCGUCGUGGAGACAGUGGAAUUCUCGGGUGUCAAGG,-0.0956
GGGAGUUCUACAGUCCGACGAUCCCUGUGCUACACAUCGUAUGUACCGAAUCGGGGUUUUUGGGGAAAAAGGGGAAAAAGGGGAAAGUAUUAUGUUACGCCGUUCGGAUCUGCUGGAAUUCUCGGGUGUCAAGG,0.125

# Block 4 — technique: protein-binding microarray; form: double-stranded DNA, one strand shown; medium: in vitro; tested at: 0.8 µM; setting: whole 60-bp probe, no competitor; reading: higher = stronger binding
# Target: Centromere-binding protein 1, full length, N-terminal tag (CBF1, Saccharomyces cerevisiae, UniProt P17106, residues 1-351)
# Sequence of UniProt P17106 (whole entry, looked up): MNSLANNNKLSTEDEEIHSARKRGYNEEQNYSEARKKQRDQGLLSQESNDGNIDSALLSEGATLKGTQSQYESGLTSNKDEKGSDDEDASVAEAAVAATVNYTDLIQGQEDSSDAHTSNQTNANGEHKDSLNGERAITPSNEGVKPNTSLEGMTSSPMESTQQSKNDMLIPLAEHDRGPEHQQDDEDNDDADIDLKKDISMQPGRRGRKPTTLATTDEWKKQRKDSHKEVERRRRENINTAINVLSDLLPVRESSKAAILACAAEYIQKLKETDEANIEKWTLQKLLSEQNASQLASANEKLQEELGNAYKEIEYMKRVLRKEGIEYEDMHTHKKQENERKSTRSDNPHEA
Strand,fluorescence intensity [a.u.]
GAAAACATTATATGTCACCTCTTCATCCTAATGTAGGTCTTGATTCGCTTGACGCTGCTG,539
GAATGTTAAGCTTACATCAGCACTAAAAAACAATAGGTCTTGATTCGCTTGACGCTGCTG,560
GAAGCCATTATCATTTAGGTGACGCCTTGTTCTTAGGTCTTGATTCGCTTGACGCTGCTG,512
TGTACGAAGCTATGTCACGTCTTTATAGTAGTTAGGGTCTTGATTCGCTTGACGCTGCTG,728
CTAGCATAAAGCTCCCCCGTCATGAACATTAAGTTCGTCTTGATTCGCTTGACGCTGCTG,468
GAAGAATAAATAGACACTCACATGTATATTAATTAGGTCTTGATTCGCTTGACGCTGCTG,1240
CTAGAAATCCTGAAGCATCAGAACATCGCAAACTTCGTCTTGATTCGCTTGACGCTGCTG,493
TGTACGAAGCTATATCATCACACTATAGTAGTTAGGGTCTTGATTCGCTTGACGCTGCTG,553
TGTACGAAGCTATTTAGTGTGATTATAGTAGTTAGGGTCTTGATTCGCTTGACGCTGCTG,523
CTATGCTCAAACGGTCGCGTGCTGAGCGGAACGTTCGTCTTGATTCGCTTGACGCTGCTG,793
GAATATATATTCATGCACATGTGTAACAATGTATAGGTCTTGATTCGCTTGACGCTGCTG,1300
GAAGAGTGCAGTGTGCACGACAGGGACCGCTAGTAGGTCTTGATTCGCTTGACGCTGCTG,521
CTATGATGGTGGTGGCACGCGATAGTACGGCACTTCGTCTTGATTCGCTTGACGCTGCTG,572
CTACCATGCCAATCAAACGTGCAACAAAGATGATTCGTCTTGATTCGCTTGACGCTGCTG,543
CTATTATGCATATGAAACGTGATATCCACCGTTTTCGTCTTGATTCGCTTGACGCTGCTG,1080
GAACCTGAATGGAAAAACGTGCCCCCATATATGTAGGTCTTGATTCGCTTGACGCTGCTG,865
CTAAAAAACAATGGAAACATCAGAAAGATATTTTTCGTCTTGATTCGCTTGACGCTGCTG,907
CTAAAGGTGTCAAATATCATGATGAATGAGGTCTTCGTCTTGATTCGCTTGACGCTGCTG,515
CTACTAAGCCCTTTACACGTTATCTGTGATCCTTTCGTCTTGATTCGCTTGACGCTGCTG,554
GAAAAAGAATGGGATCACGATGAAGTTGTAGAGTAGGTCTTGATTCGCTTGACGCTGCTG,599
GAAGCACCGCACTCGCACGTGGCAACTATTTGCTAGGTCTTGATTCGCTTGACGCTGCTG,5330
GAACAAAGACTCCGTAACATCACAGAGAACTTTTAGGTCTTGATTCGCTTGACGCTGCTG,552
GAATCTGATCTATTTCACGCCCAGAAAAAAGGCTAGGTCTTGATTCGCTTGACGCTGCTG,2230
GAAACTATCGCGTGCCACCACCATCACAGACAATAGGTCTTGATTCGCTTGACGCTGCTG,870
CTACAAAAATGTTAACATGTGACATTCACGTCATTCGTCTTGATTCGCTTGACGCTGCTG,3730

# Some of these lines once more (block 1):
Variant,normalised enrichment score
SKACRRLFGPDDS [V11D],0.726
SKAQRRLFGPVDS [C4Q],0.316
SWACRRLFGPVDS [K2W],0.0291
SSACRRLFGPVDS [K2S],0.24
